Experimental data gathered from unrelated publications.
Lines come from different studies, so protocols differ. Numbers after ± are the reported error.
Organism: Plasmodium falciparum

Molecule = C[C@@H]1C[C@H](C)C[C@H](C)[C@@H](O)CC(=O)O[C@H]([C@@H]2CCC[C@H]2C(=O)O)C/C=C/C=C(/C#N)[C@H](O)[C@@H](C)C1; read-out = parasite proliferation; technique = SYBR Green; strain = 3D7; time = 72 h; IC50 = 0.083 µM
Molecule = COc1cc(/C=C/c2ccc([N+](=O)[O-])cc2)oc(=O)c1; read-out = parasite growth; strain = K1; notes = drug-resistant strain, blood stage; IC50 = < 10 µM
Molecule = O=CCCCCCCCCCCCOCCCc1cccnc1; technique = anti-HRPII ELISA; strain = W2 chloroquine-resistant; time = 72 h; IC50 = 30.6 ± 2.7 µM
Molecule = CC(C)=CCC/C(C)=C/COCCNC1C2CC3CC(C2)CC1C3 (centres unmarked); read-out = parasite growth; strain = 3D7; notes = blood stage; IC50 = 0.93 µg/mL
Molecule = O=C(C=Cc1ccc[nH]1)NCC(=O)NC12CC3CC(CC(C3)C1)C2; read-out = parasite growth; strain = Dd2, chloroquine-resistant; IC50 = > 2.5 µM
Molecule = O=C(O)c1nn(Cc2ccc(Cl)cc2Cl)c2ccccc12; strain = 3D7; time = 48 h; notes = intraerythrocytic stage; IC50 = 209 ± 0.0013 µM
Molecule = O=CCCCCCOCCCc1cccnc1; technique = anti-HRPII ELISA; strain = W2 chloroquine-resistant; time = 72 h; IC50 = 180 ± 8.3 µM
Molecule = CCCOC(=O)C[N+](C)(C)CCOCCCCCCCCCCOCC[N+](C)(C)CC(=O)OCCC; read-out = parasite proliferation; technique = SYBR Green; strain = 3D7; time = 72 h; IC50 = 0.04 µM
Molecule = C[C@@H]1CC[C@H]2[C@@H](C)C(=O)O[C@@H]3O[C@@]4(C)CC[C@@H]1[C@]32OO4; read-out = parasite growth; technique = SYBR Green I; strain = 3D7, chloroquine-sensitive; IC50 = 0.0101 ± 0.0014 µM
Molecule = CCCCNc1c(C(=O)OCC)c(C)nc2c1cnn2CC; read-out = parasite proliferation; technique = SYBR Green; strain = 3D7; time = 72 h; IC50 = 0.12 µM
Molecule = CCN(CC)CCCC(C)Nc1ccnc2cc(Cl)ccc12 (centres unmarked); read-out = parasite growth; technique = SYTOX green flow cytometry; strain = K1 chloroquine-resistant; time = 48 h; notes = ring stage; IC50 = 0.0662 ± 0.0101 µM
Molecule = CN(CCCCCCCCCCN(C)C(=O)Oc1cccc([N+](C)(C)C)c1)C(=O)Oc1cccc([N+](C)(C)C)c1; read-out = parasite proliferation; technique = SYBR Green; strain = 3D7; time = 72 h; IC50 = 0.38 µM
Molecule = CC(C)=CCC/C(C)=C/CNCCOC(C)(C)C; read-out = parasite growth; strain = 3D7; notes = blood stage; IC50 = 3.2 µg/mL
Molecule = C[C@H]1[C@@H](O)O[C@@H]2O[C@@]3(C)CC[C@H]4[C@H](C)CC[C@@H]1[C@@]24OO3; read-out = parasite growth; strain = K1, multidrug-resistant; IC50 = 0.0036 µM
Molecule = C[C@@H]1CC[C@H]2[C@@H](C)C(=O)O[C@@H]3O[C@@]4(C)CC[C@@H]1[C@]32OO4; read-out = parasite growth; strain = K1; notes = drug-resistant strain, blood stage; IC50 = 0.01 µM
Molecule = CCN(CC)CCOc1ccc2c(c1)C(=O)c1cc(OCCN(CC)CC)ccc1-2; read-out = parasite proliferation; technique = SYBR Green; strain = 3D7; time = 72 h; IC50 = 1 µM
Molecule = [N-]=[N+]=[N-]; read-out = oxygen consumption; strain = K1; IC50 = > 500 µM
Molecule = N=C(N)c1ccc(-c2ccc(-c3ccc(C(=N)N)nc3)cc2)cn1; read-out = parasite growth; strain = K1; IC50 = ≤ 0.0006 µM
Molecule = CC(C)/C=C/C1=C(O)C(=O)c2ccccc2C1=O; read-out = parasite growth; strain = W2; notes = drug-resistant strain, blood stage; IC50 = 12.7 µM
Molecule = CCN(CC)CCCC(C)Nc1ccnc2cc(Cl)ccc12 (centres unmarked); read-out = parasite growth; IC50 = 0.0114 to 0.0121 µM
Molecule = C[C@@H]1N[C@H](CCCCCCCCCCC2=C[C@@H](CCCCCCCCCC[C@@H]3CC[C@@H](O)[C@H](C)N3)[C@@H]3CCCN3C2)CC[C@H]1O.Cl.Cl; read-out = parasite growth; strain = W2; time = 72 h; notes = drug-resistant strain, blood stage; IC50 = 0.56 µg/mL
Molecule = COC[C@H]1C(=O)NCC(=O)N2NCCC[C@H]2C(=O)N(O)[C@H](C)C(=O)O[C@@H](C(C)C)[C@H](NC(=O)[C@](C)(O)[C@]2(O)CC[C@@H](CC(C)C)[C@H](C)O2)C(=O)N2NCCC[C@@H]2C(=O)N1O; read-out = parasite proliferation; technique = SYBR Green; strain = 3D7; time = 72 h; IC50 = 0.092 µM
Molecule = C=C(C)[C@H]1Cc2c(ccc3c2O[C@@H]2COc4cc(OC)c(OC)cc4[C@@H]2C3=O)O1; read-out = parasite growth; strain = K1; notes = drug-resistant strain, blood stage; IC50 = > 2.5 µM
Molecule = COc1cc(/C=C/C=C/c2ccccc2)oc(=O)c1; read-out = parasite growth; strain = K1; notes = drug-resistant strain, blood stage; IC50 = < 10 µM
Molecule = CCN(CC)CCCC(C)Nc1ccnc2cc(Cl)ccc12 (centres unmarked); read-out = parasite growth; technique = anti-HRPII; strain = W2; notes = blood stage; IC50 = 0.3 ± 0.02 µM
Molecule = O=CCCCCCCCOCCCc1cccnc1; technique = anti-HRPII ELISA; strain = W2 chloroquine-resistant; time = 72 h; IC50 = 52.4 ± 8.9 µM
Molecule = CCN(CC)CCCC(C)Nc1ccnc2cc(Cl)ccc12 (centres unmarked); read-out = parasite growth; strain = W2; time = 48 h; notes = drug-resistant strain, blood stage; IC50 = 0.0364 µM
Molecule = CC(CCCCCC(F)(F)F)CC1=C(O)C(=O)c2ccccc2C1=O (centres unmarked); read-out = parasite growth; technique = [3H]hypoxanthine incorporation; strain = W2 chloroquine-resistant; medium = human erythrocytes; IC50 = 0.065 µM
Molecule = COC1=CC(c2ccc[nH]2)=N/C1=C\c1ccc(CCCCCCCCCCCN)[nH]1; read-out = parasite growth; strain = D6; time = 72 h; IC50 = > 1.7 µM
Molecule = CCCC1(CCC)CCC2(CCN(CCCN(C)C)C2)CC1; read-out = parasite proliferation; technique = SYBR Green; strain = 3D7; time = 72 h; IC50 = 0.3 µM
Molecule = CC(C)=CCC/C(C)=C/CNCCCOC1C2CC3CC(C2)CC1C3 (centres unmarked); read-out = parasite growth; strain = 3D7; notes = blood stage; IC50 = 0.83 µg/mL
Molecule = CCC(Cc1cnc2nc(N)nc(N)c2n1)c1ccc(C(=O)N[C@@H](CCC(=O)O)C(=O)O)cc1 (some centres unmarked); read-out = parasite proliferation; technique = SYBR Green; strain = 3D7; time = 72 h; IC50 = 0.069 µM
Molecule = CC(C)=CCC/C(C)=C/COCC(=O)NC1C2CC3CC(C2)CC1C3 (centres unmarked); read-out = parasite growth; strain = 3D7; notes = blood stage; IC50 = 3.8 µg/mL
Molecule = Antimycin A; read-out = oxygen consumption; strain = K1; IC50 = 0.016 ± 0.008 µM
Molecule = CC(C)=CCC/C(C)=C/CNC(=O)COC1C2CC3CC(C2)CC1C3 (centres unmarked); read-out = parasite growth; strain = 3D7; notes = blood stage; IC50 = 6.2 µg/mL
Molecule = CCCCCCC(C)CC1=C(O)C(=O)c2c(C)cccc2C1=O (centres unmarked); read-out = parasite growth; technique = [3H]hypoxanthine incorporation; strain = TM91C235 multidrug-resistant; medium = human erythrocytes; IC50 = 0.229 µM
Molecule = CCCc1ccc(/C=C2\N=C(c3ccc[nH]3)C=C2OC)[nH]1; read-out = parasite growth; strain = D6; time = 72 h; IC50 = > 1.7 µM
Molecule = CCN(CC)CCCC(C)Nc1ccnc2cc(Cl)ccc12 (centres unmarked); read-out = parasite growth; strain = W2; notes = drug-resistant strain, blood stage; IC50 = 0.116 µg/mL
Molecule = NC(N)=Nc1ccc(-c2ccc(-c3ccc(N=C(N)N)c(Cl)c3)o2)cc1Cl; read-out = parasite growth; technique = SYBR green I; strain = INDO or Cam3.1 R539T; medium = human red blood cells; time = 72 h; IC50 = < 1 µM
Molecule = N=C(N)c1ccc(-c2ccc(-c3cnc(C(=N)N)nc3)cc2)cc1; read-out = parasite growth; strain = K1; IC50 = ≤ 0.0006 µM
Molecule = CCN(CC)CCOc1ccc2c(=O)c3cc(F)c(OCCN(CC)CC)cc3[nH]c2c1; strain = D6; IC50 = > 0.116 µM
Molecule = CC(=O)Nc1c2sscc-2n(C)c1=O; read-out = parasite growth; strain = K1, multidrug-resistant; IC50 = 5.92 µM
Molecule = CCCCCCC(C)CC1=C(O)C(=O)c2ccccc2C1=O (centres unmarked); read-out = parasite growth; technique = [3H]hypoxanthine incorporation; strain = TM91C235 multidrug-resistant; medium = human erythrocytes; IC50 = 0.348 µM
Molecule = c1ccc2c(c1)[I+]c1ccccc1-2; strain = 3D7 stage III-V gametocytes; IC50 = 0.17 µM
